Published values of several laboratories.
Lines come from different studies, so protocols differ.

CC(C)C[C@H](NC(=O)CNC(=O)[C@H](C)NC(=O)[C@@H](N)CCCNC(=N)N)C(=O)N[C@@H](CCC(N)=O)C(=O)N[C@@H](Cc1ccccc1)C(=O)N1CCC[C@H]1C(=O)N[C@H](C(=O)NCC(=O)N[C@@H](CCCNC(=N)N)C(=O)N[C@H](C(=O)N[C@@H](Cc1c[nH]cn1)C(=O)N[C@@H](CCCNC(=N)N)C(=O)N[C@@H](CC(C)C)C(=O)N[C@@H](CC(C)C)C(=O)N[C@@H](CCCNC(=N)N)C(=O)N[C@@H](CCCCN)C(N)=O)C(C)C)C(C)C  MIC (Staphylococcus epidermidis; ATCC 12228; 18 to 20 h): 8 µM
N=C(N)NCCC[C@H](NC(=O)[C@H](Cc1c[nH]cn1)NC(=O)[C@@H]1CCCN1C(=O)[C@H](CS)NC(=O)CN)C(=O)N[C@@H](CS)C(=O)O  MIC (Streptococcus pyogenes; broth microdilution; MTCC 442; 37 °C): 90 µg/mL
O=C(/C=C/c1ccccc1)N/N=C/c1ccccc1Cl  MIC (Aspergillus niger; tube dilution; 7 days, 25 °C): < 25.1 µM
CN[C@@H]1[C@@H](O)[C@@H](O[C@@H]2[C@@H](O)[C@H](O[C@H]3OC(CNCCO)=CC[C@H]3N)[C@@H](N)C[C@H]2NC(=O)[C@@H](O)CCN)OC[C@]1(C)O  MIC (Mycolicibacterium smegmatis; wild type): 0.03 µg/mL
pneumocandin H  MIC (Candida parapsilosis; broth microdilution, resazurin; ATCC 90018; 24 h, 35 °C): 25.6 µg/mL
Cc1cccc(C(=O)N/N=C/c2ccccc2Cl)c1  MIC (Staphylococcus aureus, Bacillus subtilis, Escherichia coli; bacterial growth; 24 h): 45.7 µM
NCC[C@H](O)C(=O)N[C@@H]1C[C@H](N)[C@@H](O[C@H]2O[C@H](CN)[C@@H](O)[C@H](O)[C@H]2O)[C@H](O)[C@H]1O[C@H]1O[C@H](CO)[C@@H](O)[C@H](N)[C@H]1O  MIC (Mycobacteroides abscessus; ATCC 19977 ∆whiB7; 120 h): 0.25 µg/mL
CCCCCCCCCCCCCCCC(=O)N/N=C/c1ccccc1Cl  MIC (Staphylococcus aureus, Bacillus subtilis, Escherichia coli; bacterial growth; 24 h): 31.6 µM
CC(C)C[C@H](N)C(=O)N[C@@H](CS)C(=O)N1CCC[C@H]1C(=O)N[C@@H](Cc1c[nH]cn1)C(=O)N[C@@H](CCCNC(=N)N)C(=O)N[C@@H](CS)C(=O)O  MIC (Streptococcus pyogenes; broth microdilution; MTCC 442; 37 °C): 20 µg/mL
CC1CCC(C(C)C)C(OC(=O)Cn2c(COc3ccccc3)[n+](C)c3ccccc32)C1 (stereo not shown)  MIC (Mycolicibacterium smegmatis; microbial growth): 5 µM

Some of these lines once more:
NCC[C@H](O)C(=O)N[C@@H]1C[C@H](N)[C@@H](O[C@H]2O[C@H](CN)[C@@H](O)[C@H](O)[C@H]2O)[C@H](O)[C@H]1O[C@H]1O[C@H](CO)[C@@H](O)[C@H](N)[C@H]1O  MIC (Mycobacteroides abscessus; ATCC 19977 ∆whiB7; 120 h): 0.25 µg/mL
